Experimental data gathered from unrelated publications.
Lines come from different studies, so protocols differ.

Structure (SMILES)	assay	test system	conditions	AUC(0-24)
C[C@@H]1CCO[C@H]2Cn3cc(C(=O)NCc4ccc(F)cc4F)c(=O)c(O)c3C(=O)N12	–	human paediatric patients, weight sample E to under sample F kg, plasma	oral, 35 mg film-coated tablet, steady state, geometric mean, population PK post-hoc, N 8	43800 ng·h/mL
Cn1c(=O)oc2ccc(-c3ccc(C[C@@H](C#N)NC(=O)[C@@H]4CNCCCO4)cc3)cc21	HPLC-MS/MS	healthy male humans, plasma	oral, 25 mg	7.5 µM·h
Cc1ccc([C@@H]2O[C@H](CO)[C@@H](O)[C@H](O)[C@H]2O)cc1Cc1ccc(-c2ccc(F)cc2)s1	–	human, maintenance hemodialysis patients	oral, 100 mg once daily, day 8, steady state, median	7260 ng·h/mL
Cc1cc(Nc2cc3ncccc3c(N[C@@H]3C[C@H]4CC[C@@H](C3)N4CCC#N)n2)n[nH]1	–	human, plasma	10 mg, day 1	1.91 ng·h/mL
CC(=O)O.NC(=O)c1cnc(N[C@@H]2CCCC[C@@H]2N)nc1Nc1cccc(-n2nccn2)c1	–	human, plasma	oral, 110 mg once daily	2340 ng·h/mL
Cc1nc(-c2ccc(OCC(C)C)c(C#N)c2)sc1C(=O)O	–	human, plasma	oral, 20 mg once daily, added: verinurad 5 mg	2410 ng·h/mL
CC(C)[C@H](N)C(=O)NCCCS(=O)(=O)O	–	human both sexes, plasma	oral, 265 mg once daily, day 1, fed tablet	10300 ng·h/mL
CC(C)(Sc1ccncc1-c1ccc(C#N)c2ccccc12)C(=O)O	–	human, plasma	oral, 2.5 mg once daily, added: febuxostat 0 mg	54.8 ng·h/mL
CO[C@H]1CC[C@H](N2C(=O)CNc3ncc(-c4ccc(C(C)(C)O)nc4)nc32)CC1	–	human, plasma	oral, 60 mg, day -1, geometric mean	2030 ng·h/mL
N#Cc1ccc2c(c1)[C@H]1CCCN(C(=O)c3ccc4[nH]cnc4c3)[C@H]1C2	–	human, plasma	oral, 240 mg once daily, after first dose	141 µM·h
COc1cc(C(=O)NC2CCN(C)CC2)c(F)cc1Nc1ncc(C(F)(F)F)c(Oc2cccc3c2C(=O)N(C)C3)n1	–	human patients	oral, 10 mg, cycle 1 day 1, geometric mean	0.33 µM·h
CC(=O)c1c(C)c2cnc(Nc3ccc(N4CCNCC4)cn3)nc2n(C2CCCC2)c1=O	noncompartmental LC-MS/MS	human patients, plasma	oral, 125 mg, cycle 1 day 15, added: neratinib 240 mg	3450 ng·h/mL
CCc1nc(C(N)=O)c(Nc2ccc(N3CCC(N4CCN(C)CC4)CC3)c(OC)c2)nc1NC1CCOCC1	–	human patients	oral, 450 mg once daily, cycle 1 day 15	34800 ng·h/mL

Some of these lines once more:
Structure (SMILES)	assay	test system	conditions	AUC(0-24)
Cn1c(=O)oc2ccc(-c3ccc(C[C@@H](C#N)NC(=O)[C@@H]4CNCCCO4)cc3)cc21	HPLC-MS/MS	healthy male humans, plasma	oral, 25 mg	7.5 µM·h
Cc1ccc([C@@H]2O[C@H](CO)[C@@H](O)[C@H](O)[C@H]2O)cc1Cc1ccc(-c2ccc(F)cc2)s1	–	human, maintenance hemodialysis patients	oral, 100 mg once daily, day 8, steady state, median	7260 ng·h/mL
